Results of several laboratories.
Compare with care: the assays were run in different laboratories.
T1: PSMG1/PSMG2 heterodimer (Homo sapiens); chain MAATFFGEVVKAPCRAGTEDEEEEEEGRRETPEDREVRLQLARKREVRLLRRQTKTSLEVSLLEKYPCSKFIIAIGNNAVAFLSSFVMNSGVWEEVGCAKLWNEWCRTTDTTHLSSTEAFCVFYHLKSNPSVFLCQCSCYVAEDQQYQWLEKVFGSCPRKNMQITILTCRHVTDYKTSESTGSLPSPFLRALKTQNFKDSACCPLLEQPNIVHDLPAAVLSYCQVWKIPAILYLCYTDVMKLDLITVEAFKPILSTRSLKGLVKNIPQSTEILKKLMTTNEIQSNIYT; chain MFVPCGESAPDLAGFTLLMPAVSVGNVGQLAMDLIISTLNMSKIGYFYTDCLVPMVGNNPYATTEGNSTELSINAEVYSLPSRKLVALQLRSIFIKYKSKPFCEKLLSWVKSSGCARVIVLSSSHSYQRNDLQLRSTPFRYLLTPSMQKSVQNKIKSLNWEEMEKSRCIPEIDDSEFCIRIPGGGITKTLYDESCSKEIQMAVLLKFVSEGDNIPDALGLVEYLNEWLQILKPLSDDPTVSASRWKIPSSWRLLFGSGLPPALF
B1: NUP60 200-318 (Saccharomyces cerevisiae, UniProt P39705); sequence looked up; chain SMNTTLGSIGSRKYSFNYSSLPSPYKTTVYRYSAAKKIPDTYTANTSAQSIASAKSVRSGVSKSAPSKKISNTAAALVSLLDENDSKKNNAASELANPYSSYVSQIRKHKRVSPNAAPR
B2: Pri1 (Saccharomyces cerevisiae, UniProt P10363); sequence looked up; chain MTNSVKTNGPSSSDMEYYYKSLYPFKHIFNWLNHSPKPSRDMINREFAMAFRSGAYKRYNSFNSVQDFKAQIEKANPDRFEIGAIYNKPPRERDTLLKSELKALEKELVFDIDMDDYDAFRTCCSGAQVCSKCWKFISLAMKITNTALREDFGYKDFIWVFSGRRGAHCWVSDKRARALTDVQRRNVLDYVNVIRDRNTDKRLALKRPYHPHLARSLEQLKPFFVSIMLEEQNPWEDDQHAIQTLLPALYDKQLIDSLKKYWLDNPRRSSKEKWNDIDQIATSLFKGPKQDSHIIKLRECKEDLVLMTLYPKLDVEVTKQTIHLLKAPFCIHPATGNVCVPIDESFAPEKAPKLIDLQTEMEKNNDVSLTALQPFINQFQAYVSSLLKNELGSVKREREDDDEPASLDF
B3: gld-3 860-949 (Caenorhabditis elegans, UniProt Q95ZK7); sequence looked up; chain NGVTKTILEPRARVEKDYGKISLEHKTKYSNEYGDEEKSAENDTSSLGSRQYRIDPMKLIASVRESSEQLPRIHERQFSDVLNEKEKEIA
B4: AEBP2 407-503 (Homo sapiens, UniProt Q6ZN18-2); sequence looked up; chain RHRAICFNLSAHIESLGKGHSVVFHSTVIAKRKEDSGKIKLLLHWMPEDILPDVWVNESERHQLKTKVVHLSKLPKDTALLLDPNIYRTMPQKRLKR
B5: SF3B1 454-1304 K700E (Homo sapiens, UniProt O75533); chain KSVNDQPSGNLPFLKPDDIQYFDKLLVDVDESTLSPEEQKERKIMKLLLKIKNGTPPMRKAALRQITDKAREFGAGPLFNQILPLLMSPTLEDQERHLLVKVIDRILYKLDDLVRPYVHKILVVIEPLLIDEDYYARVEGREIISNLAKAAGLATMISTMRPDIDNMDEYVRNTTARAFAVVASALGIPSLLPFLKAVCKSKKSWQARHTGIKIVQQIAILMGCAILPHLRSLVEIIEHGLVDEQQEVRTISALAIAALAEAATPYGIESFDSVLKPLWKGIRQHRGKGLAAFLKAIGYLIPLMDAEYANYYTREVMLILIREFQSPDEEMKKIVLKVVKQCCGTDGVEANYIKTEILPPFFKHFWQHRMALDRRNYRQLVDTTVELANKVGAAEIISRIVDDLKDEAEQYRKMVMETIEKIMGNLGAADIDHKLEEQLIDGILYAFQEQTTEDSVMLNGFGTVVNALGKRVKPYLPQICGTVLWRLNNKSAKVRQQAADLISRTAVVMKTCQEEKLMGHLGVVLYEYLGEEYPEVLGSILGALKAIVNVIGMHKMTPPIKDLLPRLTPILKNRHEKVQENCIDLVGRIADRGAEYVSAREWMRICFELLELLKAHKKAIRRATVNTFGYIAKAIGPHDVLATLLNNLKVQERQNRVCTTVAIAIVAETCSPFTVLPALMNEYRVPELNVQNGVLKSLSFLFEYIGEMGKDYIYAVTPLLEDALMDRDLVHRQTASAVVQHMSLGVYGFGCEDSLNHLLNYVWPNVFETSPHVIQAVMGALEGLRVAIGPCRMLQYCLQGLFHPARKVRDVYWKIYNSIYIGSQDALIAHYPRIYNDDKNTYIRYELDYIL
B6: rasC Q62L/E157R/R164E (Dictyostelium discoideum, UniProt P32253); sequence looked up; chain MSKLLKLVIVGDGGVGKSALTIQLTQNQFIAEYDPTIENSYRKQVNIDEEVYMLDILDTAGLEEYSAMRDQYIRSGRGFLIVYSIISRASFEAVTTFREQILRVKDLSTYPIVIIGNKADLPDKDRKVPPMEGKELAKSFGAPFLETSAKSRVNVERAFFTLVEEIKRWNQNPQNEEMLPPKKRGCIIL
B7: ATF4 276-351 C310A (Homo sapiens, UniProt P18848); sequence looked up; chain EKLDKKLKKMEQNKTAATRYRQKKRAEQEALTGEAKELEKKNEALKERADSLAKEIQYLKDLIEEVRKARGKKRVP
B8: GDF15 mature (Homo sapiens, UniProt Q99988); sequence looked up; chain ARARNGDHCPLGPGRCCRLHTVRASLEDLGWADWVLSPREVQVTMCIGACPSQFRAANMHAQIKTSLHRLKPDTVPAPCCVPASYNPMVLIQKTDTGVSLQTYDDLLAKDCHCI
B9: UBASH3A 276-340 (Homo sapiens, UniProt P57075); chain VHYQTLRALFQYKPQNVDELTLSPGDYIFVDPTQQDEASEGWVIGISQRTGCRGFLPENYTDRAS
B10: Secisbp2 399-846 x (Rattus norvegicus, UniProt Q9QX72); sequence looked up; chain EFPNLSVASERRHRGESPKLQSKQQAQNDFKTGGKKSQVPVQLDAAAAAAALEKQQHAPHAKPSSRPVVFSVGAVPVLSKDASSGERGRRSSQVKTPHNPLDSSAPLMKKGKQREIPKAKKPTSLKKIILKERQERMQQRLQESAVSPTVASDDSQDVESGVTNQIPSPDNPTGPEKTEEPMSSTPVVEGESEEPAGTEFQRDPEACQPAPDSATFPKIHSRRFRDYCSQMLSKEVDACVTGLLKELVRFQDRMYQKDPVKAKTKRRLVLGLREVLKHLKLRKLKCIIISPNCEKTQSKGGLDDTLHTIIDCACEQNIPFVFALNRKALGRSLNKAVPVSIVGIFSYDGAQDQFHKMVELTMAARQAYKTMLETMRQEQAGEPGPQTPPSPPMQDPIQSTDEGTLASTGEEPHYIEIWRKHLEAYSQHALELEDSLEASTSQMMNLNL
B11: REC107 41-224 (Saccharomyces cerevisiae, UniProt P21651); chain KVANAGALEESDKQILEWAGKLELESMELRENSDKLIKVLNENSKTLCKSLNKFNQLLEQDAATNGNVKTLIKDLASQIENQLDKVSTAMLSKGDEKKTKSDSSYRQVLVEEISRYNSKITRHVTNKQHETEKSMRCTQEMLFNVGSQLEDVHKVLLSLSKDMHSLQTRQTALEMAFREKADHA
B12: PSMA7 (Homo sapiens, UniProt O14818); chain MSYDRAITVFSPDGHLFQVEYAQEAVKKGSTAVGVRGRDIVVLGVEKKSVAKLQDERTVRKICALDDNVCMAFAGLTADARIVINRARVECQSHRLTVEDPVTVEYITRYIASLKQRYTQSNGRRPFGISALIVGFDFDGTPRLYQTDPSGTYHAWKANAIGRGAKSVREFLEKNYTDEAIETDDLTIKLVIKALLEVVQSGGKNIELAVMRRDQSLKILNPEEIEKYVAEIEKEKEENEKKKQKKAS
B13: YDJ1 residues 1-109 G70N (Saccharomyces cerevisiae, UniProt P25491); chain GEFGSMVKETKFYDILGVPVTATDVEIKKAYRKCALKYHPDKNPSEEAAEKFKEASAAYEILSDPEKRDIYDQFNEDGLSGAGGAGGFPGGGFGFGDDIFSQFFGAGGAQRPRG
UniProt Q02455, sequence (whole entry, looked up): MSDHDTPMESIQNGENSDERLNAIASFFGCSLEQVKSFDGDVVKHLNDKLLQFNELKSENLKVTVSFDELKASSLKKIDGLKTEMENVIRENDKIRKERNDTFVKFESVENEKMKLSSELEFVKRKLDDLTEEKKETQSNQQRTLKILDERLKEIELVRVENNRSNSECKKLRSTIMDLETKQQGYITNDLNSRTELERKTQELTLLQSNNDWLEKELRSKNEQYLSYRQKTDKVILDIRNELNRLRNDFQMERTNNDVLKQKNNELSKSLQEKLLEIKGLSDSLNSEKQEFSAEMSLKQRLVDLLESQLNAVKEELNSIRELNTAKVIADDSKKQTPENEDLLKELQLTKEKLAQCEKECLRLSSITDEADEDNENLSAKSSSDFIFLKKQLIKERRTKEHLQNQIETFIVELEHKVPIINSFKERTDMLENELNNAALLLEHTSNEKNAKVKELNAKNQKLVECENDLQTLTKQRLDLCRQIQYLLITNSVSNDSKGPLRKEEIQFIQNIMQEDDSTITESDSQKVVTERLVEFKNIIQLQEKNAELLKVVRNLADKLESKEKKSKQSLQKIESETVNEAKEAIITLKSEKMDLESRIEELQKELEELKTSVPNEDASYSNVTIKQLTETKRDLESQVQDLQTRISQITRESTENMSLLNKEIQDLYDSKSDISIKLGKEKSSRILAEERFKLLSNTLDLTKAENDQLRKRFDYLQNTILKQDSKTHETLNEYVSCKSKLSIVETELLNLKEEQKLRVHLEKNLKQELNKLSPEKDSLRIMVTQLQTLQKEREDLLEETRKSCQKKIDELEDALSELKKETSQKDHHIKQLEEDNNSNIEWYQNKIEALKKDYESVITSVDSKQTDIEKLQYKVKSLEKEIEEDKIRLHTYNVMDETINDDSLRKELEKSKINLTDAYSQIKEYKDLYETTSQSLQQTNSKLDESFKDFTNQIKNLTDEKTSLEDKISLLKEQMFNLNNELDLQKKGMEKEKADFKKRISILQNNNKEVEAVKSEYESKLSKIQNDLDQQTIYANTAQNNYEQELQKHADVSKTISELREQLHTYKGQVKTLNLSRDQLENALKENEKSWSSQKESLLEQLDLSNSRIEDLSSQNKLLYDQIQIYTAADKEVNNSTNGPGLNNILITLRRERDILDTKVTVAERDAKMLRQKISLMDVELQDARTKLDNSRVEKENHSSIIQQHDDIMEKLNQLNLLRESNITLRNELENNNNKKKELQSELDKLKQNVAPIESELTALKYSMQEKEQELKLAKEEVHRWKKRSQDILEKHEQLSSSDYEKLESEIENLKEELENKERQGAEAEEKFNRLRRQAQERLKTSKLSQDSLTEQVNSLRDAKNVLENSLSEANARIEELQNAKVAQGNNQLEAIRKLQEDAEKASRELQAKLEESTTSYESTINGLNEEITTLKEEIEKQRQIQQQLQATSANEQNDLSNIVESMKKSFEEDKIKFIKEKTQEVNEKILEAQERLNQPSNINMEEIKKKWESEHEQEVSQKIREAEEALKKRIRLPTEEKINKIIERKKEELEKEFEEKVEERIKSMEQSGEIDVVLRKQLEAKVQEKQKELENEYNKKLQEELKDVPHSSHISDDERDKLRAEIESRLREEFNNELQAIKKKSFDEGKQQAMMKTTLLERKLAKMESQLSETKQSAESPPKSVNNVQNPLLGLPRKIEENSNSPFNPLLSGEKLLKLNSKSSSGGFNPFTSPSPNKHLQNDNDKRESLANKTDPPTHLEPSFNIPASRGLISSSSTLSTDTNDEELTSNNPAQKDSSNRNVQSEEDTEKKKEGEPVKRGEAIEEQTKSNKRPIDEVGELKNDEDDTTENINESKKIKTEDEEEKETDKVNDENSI
UniProt Q9JHW4, sequence (whole entry, looked up): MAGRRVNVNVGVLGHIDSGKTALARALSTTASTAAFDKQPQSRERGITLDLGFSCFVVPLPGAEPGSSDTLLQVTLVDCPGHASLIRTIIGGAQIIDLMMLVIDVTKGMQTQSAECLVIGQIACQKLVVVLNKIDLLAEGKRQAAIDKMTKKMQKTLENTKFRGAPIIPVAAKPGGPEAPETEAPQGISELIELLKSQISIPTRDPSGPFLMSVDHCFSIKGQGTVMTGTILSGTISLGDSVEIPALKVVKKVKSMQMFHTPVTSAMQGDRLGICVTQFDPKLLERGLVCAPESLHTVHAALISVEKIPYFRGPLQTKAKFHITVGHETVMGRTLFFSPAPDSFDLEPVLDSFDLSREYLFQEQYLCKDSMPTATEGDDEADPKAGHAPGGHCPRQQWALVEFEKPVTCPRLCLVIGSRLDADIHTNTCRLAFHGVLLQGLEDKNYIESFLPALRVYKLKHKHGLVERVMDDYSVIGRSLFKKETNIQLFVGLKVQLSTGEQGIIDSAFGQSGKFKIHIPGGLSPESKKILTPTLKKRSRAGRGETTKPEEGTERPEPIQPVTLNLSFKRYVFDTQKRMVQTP
UniProt Q15022, sequence (whole entry, looked up): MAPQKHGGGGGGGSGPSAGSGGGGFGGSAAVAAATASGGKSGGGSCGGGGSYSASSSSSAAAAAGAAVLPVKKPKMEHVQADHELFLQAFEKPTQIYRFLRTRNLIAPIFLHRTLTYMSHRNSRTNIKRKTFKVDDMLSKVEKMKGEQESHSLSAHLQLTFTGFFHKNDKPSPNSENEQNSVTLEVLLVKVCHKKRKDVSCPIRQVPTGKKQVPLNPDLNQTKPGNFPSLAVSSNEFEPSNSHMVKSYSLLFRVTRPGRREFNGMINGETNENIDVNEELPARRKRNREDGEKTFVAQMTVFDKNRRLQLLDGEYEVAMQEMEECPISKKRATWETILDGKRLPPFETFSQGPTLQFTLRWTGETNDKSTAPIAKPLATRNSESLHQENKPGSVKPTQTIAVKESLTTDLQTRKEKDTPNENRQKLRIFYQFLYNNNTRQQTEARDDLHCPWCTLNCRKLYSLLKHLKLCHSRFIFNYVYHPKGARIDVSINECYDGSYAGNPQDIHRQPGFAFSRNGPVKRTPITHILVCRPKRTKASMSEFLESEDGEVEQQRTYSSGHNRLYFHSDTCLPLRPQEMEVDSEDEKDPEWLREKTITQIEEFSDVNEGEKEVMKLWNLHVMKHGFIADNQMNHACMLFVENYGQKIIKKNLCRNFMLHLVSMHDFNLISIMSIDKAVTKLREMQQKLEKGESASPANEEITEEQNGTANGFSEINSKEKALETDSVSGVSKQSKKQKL
UniProt Q13185, sequence (whole entry, unmodified, looked up): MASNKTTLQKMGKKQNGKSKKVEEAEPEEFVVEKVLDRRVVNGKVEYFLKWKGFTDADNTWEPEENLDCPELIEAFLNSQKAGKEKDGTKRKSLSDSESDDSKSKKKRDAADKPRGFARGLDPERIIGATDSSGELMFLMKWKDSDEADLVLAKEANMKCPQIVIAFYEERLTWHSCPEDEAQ
UniProt Q6UXV0, sequence (whole entry, unmodified, looked up): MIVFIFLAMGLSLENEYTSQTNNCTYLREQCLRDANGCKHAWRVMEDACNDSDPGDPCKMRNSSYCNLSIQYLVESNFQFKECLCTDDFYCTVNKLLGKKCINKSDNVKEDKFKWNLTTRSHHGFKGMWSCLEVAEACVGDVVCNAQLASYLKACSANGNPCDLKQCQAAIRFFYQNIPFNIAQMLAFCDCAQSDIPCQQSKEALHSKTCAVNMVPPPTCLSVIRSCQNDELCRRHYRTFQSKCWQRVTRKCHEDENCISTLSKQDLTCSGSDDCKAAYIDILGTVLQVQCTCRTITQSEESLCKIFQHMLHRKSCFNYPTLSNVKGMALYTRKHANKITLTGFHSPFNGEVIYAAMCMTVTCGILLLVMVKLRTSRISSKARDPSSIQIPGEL
UniProt Q03012, sequence (whole entry, looked up): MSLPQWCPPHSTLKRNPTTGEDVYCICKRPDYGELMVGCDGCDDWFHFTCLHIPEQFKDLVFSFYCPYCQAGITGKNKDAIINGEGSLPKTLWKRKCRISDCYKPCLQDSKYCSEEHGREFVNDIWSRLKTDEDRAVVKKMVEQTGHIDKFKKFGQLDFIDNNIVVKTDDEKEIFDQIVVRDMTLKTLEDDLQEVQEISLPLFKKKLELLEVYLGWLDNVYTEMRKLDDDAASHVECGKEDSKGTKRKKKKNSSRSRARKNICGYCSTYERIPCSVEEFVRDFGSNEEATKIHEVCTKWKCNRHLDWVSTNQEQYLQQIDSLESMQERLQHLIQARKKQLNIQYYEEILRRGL
UniProt Q7RTV0, sequence (whole entry, looked up): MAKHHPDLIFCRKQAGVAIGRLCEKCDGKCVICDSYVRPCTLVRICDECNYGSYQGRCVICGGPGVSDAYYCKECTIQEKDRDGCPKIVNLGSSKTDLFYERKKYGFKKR
UniProt P12004, sequence (whole entry, looked up): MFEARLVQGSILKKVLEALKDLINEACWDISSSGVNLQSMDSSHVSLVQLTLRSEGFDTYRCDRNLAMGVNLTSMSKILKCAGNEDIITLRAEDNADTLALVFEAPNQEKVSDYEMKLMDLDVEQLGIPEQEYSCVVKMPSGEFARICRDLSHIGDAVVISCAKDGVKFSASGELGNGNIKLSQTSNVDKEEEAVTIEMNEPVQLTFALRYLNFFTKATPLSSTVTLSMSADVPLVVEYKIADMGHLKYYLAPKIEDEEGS

B1 (NUP60 200-318)
binding (MLP1 382-620 (Saccharomyces cerevisiae, UniProt Q02455); pull-down): binds

B2 (Pri1)
binding (POL1 (Saccharomyces cerevisiae, UniProt P13382); mass photometry): binds

B3 (gld-3 860-949)
binding (fbf-2 164-575 (Caenorhabditis elegans, UniProt Q09312); native gel EMSA): binds

B4 (AEBP2 407-503)
binding (SUZ12 146-363 (Homo sapiens, UniProt Q15022); SEC): binds

B5 (SF3B1 454-1304 K700E)
binding (PHF5A (Homo sapiens, UniProt Q7RTV0); cryo-EM): binds

GSGAGKETEC
binding intensity (human MAGI1-2/6 PDZ construct (MBP fusion); automated holdup; peptide, crude extract; concentration not given, corrected by standard peak, unit not given; reference: biotin control resin, higher = stronger binding): -0.0972

B6 (rasC Q62L/E157R/R164E)
binding (racE T25N/S192D/E173R/R186E (Dictyostelium discoideum); pull-down): binds

B7 (ATF4 276-351 C310A)
binding (ATF4 1-275 (Homo sapiens, UniProt P18848); NMR titration): binds

B8 (GDF15 mature)
binding (GFRAL 19-351 (Homo sapiens, UniProt Q6UXV0); ELISA): binds

B9 (UBASH3A 276-340)
binding (PIK3R1 80-724 (Homo sapiens, UniProt P27986); ITC): binds

KKATQASQEY (H2AX residues 134-143 (Homo sapiens); pS139, fluorescein label)
binding (MDC1 BRCT 1891-2089 (Homo sapiens, UniProt Q14676); fluorescence polarisation; peptide): binds

PKRSFIESNV
binding intensity (human MAGI1-3/6 PDZ construct (MBP fusion); automated holdup; peptide, crude extract; concentration not given, uncorrected, unit not given; reference: biotin control resin, higher = stronger binding): 0.356

MQRSIMSFFHPKKEGKAKKPEKE (LIG1 1-23 (Homo sapiens, UniProt P18858); sequence looked up)
binding (PCNA (Homo sapiens, UniProt P12004); co-IP; peptide): binds

KBTBD2 S252D (Homo sapiens) (sequence not shown)
binding (PIK3R1 (Homo sapiens, UniProt P27986); SEC): binds

TKQTARKSTGGKA (H3 peptide residues 3-x 4-16 (UniProt P68431); K9me3)
binding (CBX3 29-81 D68L/C69D (Homo sapiens, UniProt Q13185); array; peptide): binds

B10 (Secisbp2 399-846 x)
binding (Eefsec (Mus musculus, UniProt Q9JHW4); EMSA): binds

B11 (REC107 41-224)
binding (SPP1 (Saccharomyces cerevisiae, UniProt Q03012); SEC-MALS): binds

B12 (PSMA7)
binding (T1, PSMG1/PSMG2 heterodimer (Homo sapiens); cryo-EM): binds

MNQRPILTII
HLA class I surface increase (HLA class I histocompatibility antigen, A alpha chain, allele A*02:01 (Homo sapiens, UniProt P04439); MHC class I stabilisation, flow cytometry; peptide, TAP2-knockout TISI monoallelic cells; 25 µM, 18 h, 37 °C, together with: β2-microglobulin 3 µg/mL; reference: DMSO): 2.3%

B13 (YDJ1 residues 1-109 G70N)
binding (SSA1 T201A (Saccharomyces cerevisiae, UniProt P10591); NMR titration; together with: ATP): binds

Excerpt of the above:
KKATQASQEY (H2AX residues 134-143 (Homo sapiens); pS139, fluorescein label)
binding (MDC1 BRCT 1891-2089 (Homo sapiens, UniProt Q14676); fluorescence polarisation; peptide): binds

PKRSFIESNV
binding intensity (human MAGI1-3/6 PDZ construct (MBP fusion); automated holdup; peptide, crude extract; concentration not given, uncorrected, unit not given; reference: biotin control resin, higher = stronger binding): 0.356
